Measurements pooled from the literature.
Every numbered part comes from another study and shows a few of its results, in no order. “And” joins repeats or separate records; there may be more than shown.
Chain of UniProt P49760 (whole entry, looked up): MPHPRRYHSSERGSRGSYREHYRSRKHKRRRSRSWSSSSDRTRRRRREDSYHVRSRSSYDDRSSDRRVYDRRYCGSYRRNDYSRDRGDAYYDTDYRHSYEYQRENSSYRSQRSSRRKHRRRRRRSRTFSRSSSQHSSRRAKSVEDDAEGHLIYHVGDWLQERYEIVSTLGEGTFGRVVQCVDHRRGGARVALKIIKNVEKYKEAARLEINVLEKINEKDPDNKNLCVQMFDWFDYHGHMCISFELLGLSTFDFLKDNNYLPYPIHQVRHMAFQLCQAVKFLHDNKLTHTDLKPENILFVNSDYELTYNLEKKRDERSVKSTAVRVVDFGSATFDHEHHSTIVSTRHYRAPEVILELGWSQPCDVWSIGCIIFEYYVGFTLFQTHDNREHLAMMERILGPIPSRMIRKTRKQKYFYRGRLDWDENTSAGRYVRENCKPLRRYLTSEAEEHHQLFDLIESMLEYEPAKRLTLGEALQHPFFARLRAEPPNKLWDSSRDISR
Chain of UniProt P53779 (whole entry, looked up): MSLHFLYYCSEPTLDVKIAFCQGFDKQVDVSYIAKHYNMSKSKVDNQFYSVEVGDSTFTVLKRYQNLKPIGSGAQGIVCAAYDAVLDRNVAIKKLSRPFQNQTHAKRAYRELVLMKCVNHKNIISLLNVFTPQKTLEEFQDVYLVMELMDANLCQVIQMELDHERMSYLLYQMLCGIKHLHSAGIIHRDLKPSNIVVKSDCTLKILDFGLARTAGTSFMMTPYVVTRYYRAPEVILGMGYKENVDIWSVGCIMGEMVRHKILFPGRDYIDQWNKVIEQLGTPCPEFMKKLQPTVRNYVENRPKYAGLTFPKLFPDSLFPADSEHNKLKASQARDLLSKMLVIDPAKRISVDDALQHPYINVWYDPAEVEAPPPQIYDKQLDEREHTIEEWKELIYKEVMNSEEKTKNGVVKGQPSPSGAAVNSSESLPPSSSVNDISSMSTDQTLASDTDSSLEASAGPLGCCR
Chain of UniProt P19784 (whole entry, looked up): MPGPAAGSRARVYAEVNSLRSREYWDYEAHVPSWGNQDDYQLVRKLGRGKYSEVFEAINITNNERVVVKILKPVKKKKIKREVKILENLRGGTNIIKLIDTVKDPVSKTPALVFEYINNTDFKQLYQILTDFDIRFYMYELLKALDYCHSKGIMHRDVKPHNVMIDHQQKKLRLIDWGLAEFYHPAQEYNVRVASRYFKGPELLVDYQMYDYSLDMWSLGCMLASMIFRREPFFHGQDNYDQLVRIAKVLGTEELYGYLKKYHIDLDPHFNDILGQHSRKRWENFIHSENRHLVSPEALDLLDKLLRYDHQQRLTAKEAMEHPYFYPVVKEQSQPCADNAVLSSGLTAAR
Chain of UniProt Q14289 (whole entry, looked up): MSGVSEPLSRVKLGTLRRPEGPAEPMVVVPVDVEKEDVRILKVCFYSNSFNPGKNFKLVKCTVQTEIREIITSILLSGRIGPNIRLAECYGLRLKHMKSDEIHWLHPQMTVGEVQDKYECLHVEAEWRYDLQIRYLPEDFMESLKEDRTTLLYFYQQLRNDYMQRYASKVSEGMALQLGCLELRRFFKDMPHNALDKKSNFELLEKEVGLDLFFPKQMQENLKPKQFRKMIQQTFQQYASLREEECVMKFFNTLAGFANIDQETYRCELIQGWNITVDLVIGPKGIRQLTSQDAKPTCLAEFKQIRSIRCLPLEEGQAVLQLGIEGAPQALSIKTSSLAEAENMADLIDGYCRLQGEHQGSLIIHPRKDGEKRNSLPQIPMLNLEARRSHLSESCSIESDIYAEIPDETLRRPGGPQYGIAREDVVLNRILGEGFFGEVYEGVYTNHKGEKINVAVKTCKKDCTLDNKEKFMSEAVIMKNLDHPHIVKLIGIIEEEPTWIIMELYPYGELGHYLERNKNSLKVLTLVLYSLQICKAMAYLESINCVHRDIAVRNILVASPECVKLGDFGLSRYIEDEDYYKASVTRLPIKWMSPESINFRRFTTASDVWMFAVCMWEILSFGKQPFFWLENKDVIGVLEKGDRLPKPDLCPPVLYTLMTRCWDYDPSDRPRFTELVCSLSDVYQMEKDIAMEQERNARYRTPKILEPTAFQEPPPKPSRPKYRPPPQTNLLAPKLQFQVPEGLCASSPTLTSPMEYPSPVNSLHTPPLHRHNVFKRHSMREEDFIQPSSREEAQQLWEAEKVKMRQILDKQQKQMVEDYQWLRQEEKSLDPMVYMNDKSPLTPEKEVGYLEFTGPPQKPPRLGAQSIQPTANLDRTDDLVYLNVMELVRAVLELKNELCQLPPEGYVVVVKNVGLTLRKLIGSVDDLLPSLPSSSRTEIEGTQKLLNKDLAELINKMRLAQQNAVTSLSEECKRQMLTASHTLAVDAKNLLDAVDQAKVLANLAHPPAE
Chain of UniProt Q9NR20 (whole entry, looked up): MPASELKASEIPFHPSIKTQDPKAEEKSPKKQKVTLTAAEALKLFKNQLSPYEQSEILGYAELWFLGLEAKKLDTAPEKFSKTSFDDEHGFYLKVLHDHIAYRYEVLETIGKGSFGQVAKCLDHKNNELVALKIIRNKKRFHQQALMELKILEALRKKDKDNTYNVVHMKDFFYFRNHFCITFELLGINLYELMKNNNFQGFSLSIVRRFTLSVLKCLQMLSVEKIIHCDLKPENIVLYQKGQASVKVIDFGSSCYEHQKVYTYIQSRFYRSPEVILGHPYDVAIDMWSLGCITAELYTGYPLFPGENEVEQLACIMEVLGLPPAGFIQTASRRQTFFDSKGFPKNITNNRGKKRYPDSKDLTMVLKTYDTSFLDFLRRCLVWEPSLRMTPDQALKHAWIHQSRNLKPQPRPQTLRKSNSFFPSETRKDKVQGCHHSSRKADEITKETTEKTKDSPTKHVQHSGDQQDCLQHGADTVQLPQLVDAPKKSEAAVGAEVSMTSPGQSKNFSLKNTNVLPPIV
Chain of UniProt P41279 (whole entry, looked up): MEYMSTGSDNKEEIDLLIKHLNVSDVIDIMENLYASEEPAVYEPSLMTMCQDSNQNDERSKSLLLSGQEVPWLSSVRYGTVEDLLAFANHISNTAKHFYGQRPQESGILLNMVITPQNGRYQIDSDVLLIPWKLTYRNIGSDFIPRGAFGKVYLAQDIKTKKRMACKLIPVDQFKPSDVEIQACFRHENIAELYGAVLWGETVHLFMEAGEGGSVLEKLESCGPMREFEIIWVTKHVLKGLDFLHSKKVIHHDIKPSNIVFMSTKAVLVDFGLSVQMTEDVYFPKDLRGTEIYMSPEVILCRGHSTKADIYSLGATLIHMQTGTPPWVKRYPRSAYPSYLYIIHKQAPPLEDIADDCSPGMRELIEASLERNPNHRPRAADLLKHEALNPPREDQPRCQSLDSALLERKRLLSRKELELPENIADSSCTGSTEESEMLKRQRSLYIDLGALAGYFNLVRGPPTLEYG
Chain of UniProt Q09013 (whole entry, looked up): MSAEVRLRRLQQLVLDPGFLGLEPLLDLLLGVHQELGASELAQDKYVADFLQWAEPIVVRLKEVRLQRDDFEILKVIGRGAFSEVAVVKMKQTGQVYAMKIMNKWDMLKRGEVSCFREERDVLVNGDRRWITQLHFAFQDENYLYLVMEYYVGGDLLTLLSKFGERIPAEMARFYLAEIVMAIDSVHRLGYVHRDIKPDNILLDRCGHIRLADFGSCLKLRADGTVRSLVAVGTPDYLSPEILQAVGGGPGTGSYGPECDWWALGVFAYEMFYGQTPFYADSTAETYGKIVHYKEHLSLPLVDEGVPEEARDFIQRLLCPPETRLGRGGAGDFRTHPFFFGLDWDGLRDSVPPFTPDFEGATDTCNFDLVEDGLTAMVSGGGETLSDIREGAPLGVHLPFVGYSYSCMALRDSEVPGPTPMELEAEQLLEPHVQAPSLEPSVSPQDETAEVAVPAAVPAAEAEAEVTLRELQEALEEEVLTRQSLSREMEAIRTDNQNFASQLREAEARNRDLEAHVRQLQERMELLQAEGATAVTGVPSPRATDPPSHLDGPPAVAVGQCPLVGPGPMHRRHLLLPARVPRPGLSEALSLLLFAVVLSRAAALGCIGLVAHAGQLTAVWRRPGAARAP
Chain of UniProt P50613 (whole entry, looked up): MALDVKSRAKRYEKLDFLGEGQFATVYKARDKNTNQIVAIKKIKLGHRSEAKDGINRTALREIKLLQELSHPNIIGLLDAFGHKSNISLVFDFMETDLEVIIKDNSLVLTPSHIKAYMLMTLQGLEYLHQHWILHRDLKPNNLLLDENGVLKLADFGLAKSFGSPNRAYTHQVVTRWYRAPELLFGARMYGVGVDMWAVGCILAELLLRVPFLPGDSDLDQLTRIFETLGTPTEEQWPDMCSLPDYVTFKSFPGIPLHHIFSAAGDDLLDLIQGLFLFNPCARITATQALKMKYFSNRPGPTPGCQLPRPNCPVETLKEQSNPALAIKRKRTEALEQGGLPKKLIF
Chain of UniProt Q8IU85 (whole entry, looked up): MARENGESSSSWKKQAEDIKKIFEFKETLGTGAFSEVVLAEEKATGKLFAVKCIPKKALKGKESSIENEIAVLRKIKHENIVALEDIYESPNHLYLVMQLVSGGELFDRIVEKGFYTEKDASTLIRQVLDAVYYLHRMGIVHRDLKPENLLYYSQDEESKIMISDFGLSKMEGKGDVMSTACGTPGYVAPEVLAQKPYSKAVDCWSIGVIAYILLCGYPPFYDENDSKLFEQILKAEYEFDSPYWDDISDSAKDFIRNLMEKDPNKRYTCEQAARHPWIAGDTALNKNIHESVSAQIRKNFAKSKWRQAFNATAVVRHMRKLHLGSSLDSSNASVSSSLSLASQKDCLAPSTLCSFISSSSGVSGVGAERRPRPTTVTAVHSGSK

Study 1 — method: aptamer microarray, sandwich; molecule type: DNA with 2'F-ANA; matrix: in vitro; tested at: 200 nM; added: Cy3 exosite-II aptamer, 400 nM; reading: higher = stronger binding; oligonucleotide: GGTTGGTGTGGTTGG
Target: Prothrombin, mature alpha-thrombin (F2, Homo sapiens, UniProt P00734)
Notes: whole 15-mer aptamer, many near background
Modification | mean fluorescence intensity [a.u.]
2'F-ANA at 7 8 10 11 15 | 197
2'F-ANA at 4 5 6 7 8 10 11 12 | 62.5
2'F-ANA at 3 6 7 8 9 11 12 13 14 15 | 452
2'F-ANA at 1 2 5 7 10 11 13 | 59.2
2'F-ANA at 2 3 4 5 6 7 8 9 13 15 | 74.3
2'F-ANA at 3 4 7 14 | 431
2'F-ANA at 3 4 5 7 8 10 13 14 | 47.3
2'F-ANA at 1 2 3 5 7 8 9 14 | 50.4

Study 2 — host: mouse; matrix: microsomes or S9; tested at: 2 µM; time: 0.5 h
Compound | remaining compound [%]
O=C(Cn1nnc(-c2ccc(F)cc2)n1)N[C@H]1C[C@@H]2OCC[C@H]12 | 70.2
Cc1cc(CC(C)n2ccnc2-c2ccc(C)o2)[nH]n1 (stereo not drawn) | 8.97
Cc1cc(C)cc(-n2nc(NC(=O)NC3(c4noc(C)n4)CCC3)cc2C)c1 | 33.2
Cc1nc(NCC(O)CO)nc(C)c1CC(C)C (stereo not drawn) | 72.7
CC(CCCC(C)(C)O)Cc1[nH]cnc1-c1ccccc1 (stereo not drawn) | 96.8

Study 3 — cell line: A-375; tested at: 100 µM; time: 36 h
SMILES | viability
CCCCC1(COC(=O)CCC(=O)O)C(=O)N(c2ccccc2)N(c2ccccc2)C1=O | 118%
Cc1coc2c1C(=O)C(=O)c1c-2ccc2c(C)cccc12 | 23.3%
Fc1ccc([C@@H]2CCNC[C@H]2COc2ccc3c(c2)OCO3)cc1 | 1.39%
CN1CCN2c3ncccc3Cc3ccccc3C2C1 (stereo not drawn) | 108%

Study 4 — Compound: Cc1ccc(NC2=CC(=O)c3sc(C)nc3C2=O)cc1; effect on: enzyme activity; action: inhibitor; tested at: 0.5 µM; baseline: control
target | remaining activity [%]
MAP3K8 (Homo sapiens, UniProt P41279) | 90.2
ROCK2 (Homo sapiens, UniProt O75116) | 85.1
MAPK10 (Homo sapiens, UniProt P53779) | 105
GRK5 (Homo sapiens, UniProt P34947) | 106
CSNK2A2 (Homo sapiens, UniProt P19784) | 87.8
PKN2 (Homo sapiens, UniProt Q16513) | 115
CDK7 (Homo sapiens, UniProt P50613) | 95.4
CAMK1G (Homo sapiens, UniProt Q96NX5) | 95
DYRK4 (Homo sapiens, UniProt Q9NR20) | 97.9
PTK2B (Homo sapiens, UniProt Q14289) | 90.2
Aurora kinase A (AURKA, Homo sapiens, UniProt O14965) | 110
CAMK1D (Homo sapiens, UniProt Q8IU85) | 100
NTRK3 (Homo sapiens, UniProt Q16288) | 94
DMPK (Homo sapiens, UniProt Q09013) | 103
EGFR (Homo sapiens, UniProt P00533) | 97.9

Mixed results
SMILES | tested on | assay | test system | setting | scale | quantity | result
C[C@@H]1CN(c2cc(-c3nn(C)c4ccc(OC5(C)CC5)cc34)ncn2)C[C@H](C)O1 | CLK2 (Homo sapiens, UniProt P49760) | target engagement, NanoBRET | live cells | – | – | EC50 | 7.52 µM and 14.4 µM and 9.51 µM
CC(=O)N[C@@H](Cc1c[nH]c2ccccc12)C(=O)N[C@@H](CCC(=O)C=[N+]=[N-])C(=O)OC(C)C | – | UPLC-MS/MS | EL4 tumor, C57BL/6 CES1-/- mice, tumor | subcutaneous, 0.3 mg/kg DON equivalent daily, 5 days | higher = more metabolite | pseudouridine level | 382000 a.u. and 273000 a.u. and 206000 a.u. and 258000 a.u. and 430000 a.u. and 274000 a.u.
Cn1cncc1[C@@](O)(COc1ccc(C#N)cc1-c1ccc(OC(F)(F)F)cc1)c1ccc(C#N)cc1 | HEK293T | high-content imaging | – | 10 µM, 12 h | – | pyknotic nuclei | 30.2% and 51.1%
CC(C)n1cnc(-c2ccc(F)cc2)c1-c1ncc(C(=O)Nc2ccc(N3CCN(C)CC3)cc2)[nH]1 | – | item: chronic gastritis | human, idiopathic pulmonary fibrosis | dose not given, trial, all arms pooled | – | treatment-emergent AE | 0%

A few entries again (study 1):
Modification | mean fluorescence intensity [a.u.]
2'F-ANA at 4 5 6 7 8 10 11 12 | 62.5
2'F-ANA at 3 6 7 8 9 11 12 13 14 15 | 452
2'F-ANA at 1 2 5 7 10 11 13 | 59.2
2'F-ANA at 2 3 4 5 6 7 8 9 13 15 | 74.3
